Published values from different studies.
Parts stem from different laboratories: compare values within a part only.
Sequence of UniProt Q96NX5 (whole entry, looked up): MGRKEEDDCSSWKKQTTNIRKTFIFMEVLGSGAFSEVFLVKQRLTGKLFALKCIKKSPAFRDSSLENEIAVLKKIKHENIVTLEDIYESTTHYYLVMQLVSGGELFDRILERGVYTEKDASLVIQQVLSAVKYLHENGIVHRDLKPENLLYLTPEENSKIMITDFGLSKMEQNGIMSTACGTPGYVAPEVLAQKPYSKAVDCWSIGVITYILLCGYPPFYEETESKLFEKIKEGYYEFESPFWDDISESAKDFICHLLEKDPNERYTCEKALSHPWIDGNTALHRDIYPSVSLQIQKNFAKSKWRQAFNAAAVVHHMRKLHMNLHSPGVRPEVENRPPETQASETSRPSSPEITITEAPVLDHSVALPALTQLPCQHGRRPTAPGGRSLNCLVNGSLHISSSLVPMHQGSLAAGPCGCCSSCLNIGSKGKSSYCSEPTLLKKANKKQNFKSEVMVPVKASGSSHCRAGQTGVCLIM

Sample 1 — method: competition protein-binding microarray; form: double-stranded DNA, one strand shown; sample: in vitro; tested at: 2 µM; together with: Cbf1 competitor, 0.05 µM; direction: higher = stronger binding; shared flanks, not repeated: … GTCTTGATTCGCTTGACGCTGCTG
Target: Phosphate system positive regulatory protein PHO4, full length, GST-tagged (PHO4, Saccharomyces cerevisiae, UniProt P07270, residues 1-312)
Setting: whole 60-bp probe, lowest competitor level
Target sequence (chain): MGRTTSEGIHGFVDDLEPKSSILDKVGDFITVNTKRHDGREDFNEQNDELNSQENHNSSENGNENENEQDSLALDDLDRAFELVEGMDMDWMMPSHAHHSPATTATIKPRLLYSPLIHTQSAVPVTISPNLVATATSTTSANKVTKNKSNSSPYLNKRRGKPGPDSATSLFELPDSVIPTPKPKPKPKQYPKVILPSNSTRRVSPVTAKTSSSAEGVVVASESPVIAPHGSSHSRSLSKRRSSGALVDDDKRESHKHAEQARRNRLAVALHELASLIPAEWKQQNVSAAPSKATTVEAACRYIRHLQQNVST
Oligonucleotide | fluorescence intensity
GGTGTCCATCCCCGTCACATGGTGCAGTACTTCCTT | 10200 a.u.
GATTGCTCTCAAAATCTCGTGGGTACCCGTCGTTGA | 9640 a.u.
CAACTTCTTTTATTGCACGTACCTTTTGGACTGGTT | 7500 a.u.
GCCACTGAGAATGAGCGCGTGGGACAGAAACGGTGG | 13100 a.u.
CGGGGTTAAGTTTGCCCCGTGGGTGGCTTGCAGCAG | 11300 a.u.
CAGTCAAAAGAACAGCATCGATGTCCAATGGGTCTA | 3080 a.u.
CATGTTATCTAGCATCACCTGCCCATCATTTATCTG | 6590 a.u.
CCCAAGCGCTAGCATCACAAACGGCGAACTTCCCAT | 2920 a.u.

Sample 2 — method: aptamer microarray, sandwich; form: DNA with 2'F-ANA; sample: in vitro; tested at: 200 nM; together with: Cy3 exosite-II aptamer, 400 nM; direction: higher = stronger binding; oligonucleotide: GGTTGGTGTGGTTGG
Target: Prothrombin, mature alpha-thrombin (F2, Homo sapiens, UniProt P00734)
Setting: whole 15-mer aptamer, many near background
Modification | mean fluorescence intensity [a.u.]
2'F-ANA at 3 5 6 7 8 10 11 12 14 15 | 50.8
2'F-ANA at 2 5 6 7 10 13 14 15 | 44.9
2'F-ANA at 1 2 3 4 5 7 9 10 11 12 14 15 | 50.3
2'F-ANA at 4 5 6 7 8 9 10 12 13 14 15 | 49.1
2'F-ANA at 2 3 4 5 6 13 15 | 72.4
2'F-ANA at 1 3 8 10 11 12 14 15 | 57.8
2'F-ANA at 2 5 7 9 10 15 | 45
2'F-ANA at 1 2 4 6 8 9 13 14 | 49.4

Sample 3 — method: protein-binding microarray; form: double-stranded DNA, one strand shown; sample: in vitro; tested at: 250 nM; setting: 60-bp whole probe; together with: salmon DNA 0.4 mg/ml; relative to: random background probes; direction: higher = stronger binding; shared flanks, not repeated: GCCTAGCAC … GTCTTGATTCGCTTGACGCTGCTG
Target: Interferon regulatory factor 5, full length, phosphomimetic (IRF5, Homo sapiens, UniProt Q13568-2, residues 1-514, K96S/S451D/S453D/S456D/S462D)
Oligonucleotide | log fluorescence
GACGGACTGGGGTATCGAGACGTGCTA | 0.0538 z-score
ATTCTTTGCTCATTTTTCAGGGTGCTA | 0.962 z-score
TTTTATGAAGGCCGGGGAGGGTGCTAG | 0.767 z-score
GACGGTTCCGGTTCCGGGACGTGCTAG | 0.852 z-score
GACGGTCTCCTTTTCCAGACGTGCTAG | -0.0207 z-score
GACGGTATCGTACTGCTGACGTGCTAG | 0.416 z-score
GACGGACTGGAAACTGGGGACGTGCTA | -0.376 z-score
ATATTGATGGCTCTCTGGACGTGCTAG | 0.0227 z-score

Further values, each from its own experiment
SMILES | target | observed | action | tested at | relative to | endpoint | value
Nc1nc(Nc2ccc(S(N)(=O)=O)cc2)nn1C(=O)c1c(F)cccc1F | Calcium/calmodulin-dependent protein kinase type 1G (CAMK1G, Homo sapiens, UniProt Q96NX5) | enzyme activity | inhibitor | 0.5 µM | control | remaining activity | 101%

Some of these lines once more (sample 3):
Oligonucleotide | log fluorescence
TTTTATGAAGGCCGGGGAGGGTGCTAG | 0.767 z-score
GACGGACTGGAAACTGGGGACGTGCTA | -0.376 z-score
GACGGTATCGTACTGCTGACGTGCTAG | 0.416 z-score
